Measurements collected from several papers.
Compare with care: the assays were run in different laboratories. Several values in a cell are separate wells, animals, samples, runs or records. ± marks the error that the study gave.
GABA-A receptor; alpha-1/beta-3/gamma-2: GABA-A receptor; alpha-1/beta-3/gamma-2 (Homo sapiens, UniProt P14867+P18507+P28472)
UniProt P14867, sequence (whole entry, looked up): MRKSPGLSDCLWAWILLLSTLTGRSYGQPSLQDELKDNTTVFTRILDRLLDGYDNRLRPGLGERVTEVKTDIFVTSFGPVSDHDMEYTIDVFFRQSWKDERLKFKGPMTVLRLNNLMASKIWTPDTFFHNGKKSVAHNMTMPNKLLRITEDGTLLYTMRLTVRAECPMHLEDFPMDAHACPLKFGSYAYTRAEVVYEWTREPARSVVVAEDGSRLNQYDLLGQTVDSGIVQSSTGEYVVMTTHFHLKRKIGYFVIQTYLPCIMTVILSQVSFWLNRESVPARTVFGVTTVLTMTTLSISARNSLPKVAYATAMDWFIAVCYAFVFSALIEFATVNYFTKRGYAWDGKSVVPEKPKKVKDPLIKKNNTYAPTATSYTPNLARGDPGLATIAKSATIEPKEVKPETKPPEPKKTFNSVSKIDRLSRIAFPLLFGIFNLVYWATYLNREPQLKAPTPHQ
UniProt P28472, sequence (whole entry, looked up): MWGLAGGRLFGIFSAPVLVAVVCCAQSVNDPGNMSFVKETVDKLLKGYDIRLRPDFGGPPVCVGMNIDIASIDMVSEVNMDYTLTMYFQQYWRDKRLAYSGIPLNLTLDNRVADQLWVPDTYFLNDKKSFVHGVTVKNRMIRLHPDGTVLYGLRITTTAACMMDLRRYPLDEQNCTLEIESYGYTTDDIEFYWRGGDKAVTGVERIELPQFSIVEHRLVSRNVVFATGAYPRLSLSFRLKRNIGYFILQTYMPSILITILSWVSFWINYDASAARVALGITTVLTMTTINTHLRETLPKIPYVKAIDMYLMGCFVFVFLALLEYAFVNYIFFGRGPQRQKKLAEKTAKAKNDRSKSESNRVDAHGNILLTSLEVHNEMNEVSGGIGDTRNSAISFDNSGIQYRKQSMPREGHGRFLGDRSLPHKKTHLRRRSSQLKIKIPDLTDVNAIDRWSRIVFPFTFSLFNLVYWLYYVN
UniProt Q01959, sequence (whole entry, unmodified, looked up): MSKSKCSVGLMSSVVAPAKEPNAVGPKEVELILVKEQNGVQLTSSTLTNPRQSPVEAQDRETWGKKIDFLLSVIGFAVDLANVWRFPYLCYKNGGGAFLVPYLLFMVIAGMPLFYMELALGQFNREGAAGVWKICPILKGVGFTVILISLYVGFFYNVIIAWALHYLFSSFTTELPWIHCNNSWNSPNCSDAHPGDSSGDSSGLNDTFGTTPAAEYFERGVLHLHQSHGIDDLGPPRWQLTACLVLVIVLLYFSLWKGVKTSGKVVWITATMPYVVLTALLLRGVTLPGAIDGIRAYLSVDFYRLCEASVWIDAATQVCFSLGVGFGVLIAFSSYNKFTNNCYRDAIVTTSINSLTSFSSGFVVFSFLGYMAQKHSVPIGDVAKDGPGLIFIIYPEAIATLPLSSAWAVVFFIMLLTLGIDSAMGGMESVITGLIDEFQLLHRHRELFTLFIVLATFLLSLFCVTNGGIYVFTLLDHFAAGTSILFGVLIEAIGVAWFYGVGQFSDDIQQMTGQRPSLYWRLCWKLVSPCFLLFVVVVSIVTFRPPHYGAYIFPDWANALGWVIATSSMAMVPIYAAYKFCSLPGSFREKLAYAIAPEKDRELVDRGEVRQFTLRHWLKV
UniProt P18507, sequence (whole entry, looked up): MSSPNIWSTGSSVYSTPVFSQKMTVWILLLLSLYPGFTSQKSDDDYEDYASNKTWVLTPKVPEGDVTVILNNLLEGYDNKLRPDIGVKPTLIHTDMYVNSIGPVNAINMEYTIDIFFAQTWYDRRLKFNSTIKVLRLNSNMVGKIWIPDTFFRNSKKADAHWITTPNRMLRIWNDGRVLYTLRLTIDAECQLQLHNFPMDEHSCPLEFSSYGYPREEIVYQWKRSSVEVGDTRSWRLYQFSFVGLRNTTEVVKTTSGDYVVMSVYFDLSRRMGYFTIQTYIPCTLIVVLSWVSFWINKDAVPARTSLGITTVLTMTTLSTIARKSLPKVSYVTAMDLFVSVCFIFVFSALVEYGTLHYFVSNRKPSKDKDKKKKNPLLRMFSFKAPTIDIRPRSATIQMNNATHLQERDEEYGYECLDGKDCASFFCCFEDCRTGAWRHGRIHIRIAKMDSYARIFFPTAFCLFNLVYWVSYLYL
UniProt P36544, sequence (whole entry, looked up): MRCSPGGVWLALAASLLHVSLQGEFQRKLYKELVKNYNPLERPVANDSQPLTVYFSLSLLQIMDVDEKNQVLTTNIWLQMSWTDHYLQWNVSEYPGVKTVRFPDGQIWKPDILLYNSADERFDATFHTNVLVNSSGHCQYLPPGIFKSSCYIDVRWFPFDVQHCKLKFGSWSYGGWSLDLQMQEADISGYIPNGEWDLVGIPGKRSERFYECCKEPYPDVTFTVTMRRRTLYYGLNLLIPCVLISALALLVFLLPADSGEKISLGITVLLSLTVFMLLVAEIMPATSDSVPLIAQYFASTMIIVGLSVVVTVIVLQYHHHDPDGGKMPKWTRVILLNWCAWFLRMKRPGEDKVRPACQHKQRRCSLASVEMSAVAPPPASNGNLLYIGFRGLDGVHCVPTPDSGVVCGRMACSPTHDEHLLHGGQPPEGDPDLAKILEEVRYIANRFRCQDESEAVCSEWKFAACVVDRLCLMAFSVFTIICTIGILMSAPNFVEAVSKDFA
UniProt P41143, sequence (whole entry, looked up): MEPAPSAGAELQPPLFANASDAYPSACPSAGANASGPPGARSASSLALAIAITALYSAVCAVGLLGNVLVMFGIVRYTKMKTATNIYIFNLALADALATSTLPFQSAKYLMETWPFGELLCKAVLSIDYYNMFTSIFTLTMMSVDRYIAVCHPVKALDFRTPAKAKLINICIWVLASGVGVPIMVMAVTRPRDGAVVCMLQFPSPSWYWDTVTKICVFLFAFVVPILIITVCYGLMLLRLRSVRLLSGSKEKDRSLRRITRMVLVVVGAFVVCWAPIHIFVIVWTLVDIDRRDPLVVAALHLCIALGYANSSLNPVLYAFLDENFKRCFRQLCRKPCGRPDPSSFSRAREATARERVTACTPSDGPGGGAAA
UniProt Q8NET8, sequence (whole entry, unmodified, looked up): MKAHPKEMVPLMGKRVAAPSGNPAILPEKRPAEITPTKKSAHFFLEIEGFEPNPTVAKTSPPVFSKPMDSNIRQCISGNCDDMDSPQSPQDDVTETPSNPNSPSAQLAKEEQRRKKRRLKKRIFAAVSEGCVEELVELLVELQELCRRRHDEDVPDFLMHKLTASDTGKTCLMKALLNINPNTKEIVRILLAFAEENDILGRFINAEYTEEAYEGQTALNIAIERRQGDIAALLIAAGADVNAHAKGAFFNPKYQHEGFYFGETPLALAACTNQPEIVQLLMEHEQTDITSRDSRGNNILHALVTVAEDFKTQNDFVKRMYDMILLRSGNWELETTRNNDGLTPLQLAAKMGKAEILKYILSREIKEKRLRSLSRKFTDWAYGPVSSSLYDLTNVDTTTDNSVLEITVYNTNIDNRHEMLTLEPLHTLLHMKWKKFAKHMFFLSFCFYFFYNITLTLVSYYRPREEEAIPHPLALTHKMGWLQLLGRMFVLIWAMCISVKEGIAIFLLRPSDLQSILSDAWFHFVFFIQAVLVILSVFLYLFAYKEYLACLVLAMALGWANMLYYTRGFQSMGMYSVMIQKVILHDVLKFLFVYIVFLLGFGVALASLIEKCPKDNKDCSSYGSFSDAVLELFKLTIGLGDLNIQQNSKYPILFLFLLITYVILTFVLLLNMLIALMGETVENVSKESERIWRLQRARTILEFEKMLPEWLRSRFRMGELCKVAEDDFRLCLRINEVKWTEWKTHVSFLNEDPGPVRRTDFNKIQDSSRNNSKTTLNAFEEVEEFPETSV
UniProt P21554, sequence (whole entry, unmodified, looked up): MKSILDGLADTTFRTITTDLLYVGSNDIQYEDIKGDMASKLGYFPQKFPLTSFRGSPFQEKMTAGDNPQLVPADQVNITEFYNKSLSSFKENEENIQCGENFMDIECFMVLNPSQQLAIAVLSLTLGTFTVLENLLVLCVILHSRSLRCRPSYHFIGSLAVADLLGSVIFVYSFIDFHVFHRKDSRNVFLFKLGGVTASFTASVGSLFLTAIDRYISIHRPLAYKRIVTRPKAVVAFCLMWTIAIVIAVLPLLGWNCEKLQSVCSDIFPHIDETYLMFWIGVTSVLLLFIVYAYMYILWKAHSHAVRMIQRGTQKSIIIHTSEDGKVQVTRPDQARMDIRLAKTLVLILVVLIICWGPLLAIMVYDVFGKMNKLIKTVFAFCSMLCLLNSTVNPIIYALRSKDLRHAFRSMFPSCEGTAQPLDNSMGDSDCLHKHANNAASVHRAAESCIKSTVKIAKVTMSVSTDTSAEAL
UniProt P9WIL3, sequence (whole entry, looked up): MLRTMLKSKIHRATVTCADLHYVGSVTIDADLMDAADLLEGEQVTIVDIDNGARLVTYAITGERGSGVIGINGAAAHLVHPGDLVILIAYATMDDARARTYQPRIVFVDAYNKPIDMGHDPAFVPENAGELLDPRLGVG
UniProt Q9BYT3, sequence (whole entry, looked up): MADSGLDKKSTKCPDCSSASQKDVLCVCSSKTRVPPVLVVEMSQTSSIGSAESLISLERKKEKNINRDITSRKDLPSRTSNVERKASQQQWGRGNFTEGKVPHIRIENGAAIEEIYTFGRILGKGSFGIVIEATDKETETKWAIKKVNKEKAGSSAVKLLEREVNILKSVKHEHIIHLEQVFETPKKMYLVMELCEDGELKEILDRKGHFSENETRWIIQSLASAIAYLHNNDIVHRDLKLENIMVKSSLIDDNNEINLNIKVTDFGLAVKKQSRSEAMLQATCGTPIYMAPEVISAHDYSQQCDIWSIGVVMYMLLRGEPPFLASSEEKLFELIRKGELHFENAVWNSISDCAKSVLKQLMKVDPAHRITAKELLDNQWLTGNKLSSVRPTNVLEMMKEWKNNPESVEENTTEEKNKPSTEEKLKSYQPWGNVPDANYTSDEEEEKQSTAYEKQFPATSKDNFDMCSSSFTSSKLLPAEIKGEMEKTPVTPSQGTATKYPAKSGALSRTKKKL

Structure (SMILES) | tested on | assay | test system | setting | how to read | quantity | result
CNC(C)C(=O)c1ccc2c(c1)OCO2 (stereo not drawn) | Slc6a3 (Rattus norvegicus, UniProt P23977) | substrate release, releaser | rat brain synaptosomes | – | – | maximal release | 100%
Cl.O=C(N[C@H]1CC[C@@]2(O)[C@H]3Cc4ccc(O)c5c4[C@@]2(CCN3CC2CC2)[C@H]1O5)c1ccc(F)s1 | OPRD1 (Homo sapiens, UniProt P41143) | radioligand binding | CHO membranes | – | baseline: Ki µ over Ki δ | selectivity ratio | 108
CO[C@H]1C[C@@H]2CC[C@@H](C)[C@@](O)(O2)C(=O)C(=O)N2CCCC[C@H]2C(=O)O[C@H]([C@H](C)C[C@@H]2CC[C@@H](OC(=O)NCCOCCOCCOCCOCCOCCOCCOCCOCCC(=O)N3CCc4cc(Cn5nc(-c6ccc7oc(N)nc7c6)c6c(N)ncnc65)ccc4C3)[C@H](OC)C2)C[C@@H](O)[C@H](C)/C=C(\C)[C@@H](O)[C@@H](OC)C(=O)[C@H](C)C[C@H](C)/C=C/C=C/C=C/1C | – | – | patients with advanced solid tumours | intravenous, 16 mg weekly, grade 3 or higher | – | vomiting incidence | 0%
CC(NC(C)(C)C)C(=O)c1cccc(Cl)c1.Cl (stereo not drawn) | Nuclear receptor subfamily 2 group C member 2, ligand-binding domain (Homo sapiens, UniProt P49116) | SPR imaging | – | 600 nM | – | koff | 2.41e-05 s⁻¹
c1ccc2cc([C@]34CNC[C@H]3C4)ccc2c1 | SLC6A3 (Homo sapiens, UniProt Q01959, V152A) | inhibitor, [3H]dopamine uptake | – | 1 µM, V152A mutant | baseline: no inhibitor | dopamine uptake | 18.2% and 19.5% and 18.7%
COc1cc(CCNC(C)c2ccccc2O)c(OC)cc1C#N (single isomer, unassigned; (-)) | HTR2A (Homo sapiens, UniProt P28223) | receptor activation, agonist | – | – | – | Emax | 93%
COc1cc2c(Oc3ccc4[nH]c(C)cc4c3F)ccnc2cc1OCC1(N)CC1 | – | – | paediatric recurrent refractory sarcoma | 8 mg | – | grade 3 intestinal obstruction | 0%
CN[C@]1(c2ccccc2Cl)CCCCC1=O | CHRNA7 (Homo sapiens, UniProt P36544) | radioligand binding, antagonist, radioligand displacement | – | 30 µM | – | inhibition | 2%
CC(C)c1ccc2c(c1)C1(CC2)C(=O)NC(=O)NC1=O | GABA-A receptor; alpha-1/beta-3/gamma-2 | – | – | 300 µM | – | Emax | 26%
COc1ccc(N2C(=O)N(c3c(C)cccc3Cl)Cc3cnc(Nc4ccc(C5CCN(C)CC5)cc4OC)nc32)nc1 | STK33 (Homo sapiens, UniProt Q9BYT3) | kinase activity | – | 0.5 µM | – | inhibition | 5.68%
CCOc1ccccc1C(=O)Nc1ccc(Cl)c(C(F)(F)F)c1 | KAT5 (Homo sapiens, UniProt Q92993) | SPR | – | 5.56 µM | higher = more binding | SPR binding response | 0.201 RU
CC[C@H](C)[C@@H]1NC(=O)[C@@H]2CCCN2C(=O)[C@H](CC(C)C)NC(=O)[C@H](CC(C)C)NC(=O)CNC(=O)[C@@H](NC(=O)[C@@H](NC(=O)[C@H](CC(=O)O)NC(=O)CNC(=O)[C@@H](NC(=O)[C@H](C)NC(=O)CNC(=O)[C@H](CCCCN)NC(=O)[C@H](CC(C)C)NC(=O)[C@H](CC(C)C)NC(=O)[C@H](CCCCN)NC(=O)CNC(=O)[C@@H](NC(=O)[C@@H](N)CC(C)C)C(C)C)C(C)C)C(C)C)CSSC[C@@H](C(=O)O)NC1=O | – | RNA-seq, measured: Gpr171 | mouse, traumatic brain injury model, frontal cortex and hippocampus | dose not given | baseline: TBI alone | log2 fold change | -2.92
Cc1ccc(C(=O)Nc2ccc(Oc3cc4cnn(C)c4cc3-c3cn[nH]c3)c(F)c2)c(=O)n1-c1ccc(F)cc1 | MET (Homo sapiens, UniProt P08581, C1091S/C1146S/F1200I/K1232C) | – | – | concentration not given | baseline: wild type | Kd fold change | ≤ 1.5 fold
CN1CCN(c2cc(-c3ccncc3)c(-c3ccc4ccccc4c3)nn2)CC1 | LPAR5 (Homo sapiens, UniProt Q9H1C0) | antagonist, FLIPR | – | 10 µM | – | inhibition | 37.2%
Oc1ccc2c3c1O[C@H]1[C@@H](O)CC[C@@]4(O)[C@@H](C2)N(CC2CCC2)CC[C@]314 | GPRC5C (Homo sapiens, UniProt Q9NQ84) | β-arrestin recruitment, TANGO luminescence | – | concentration not given | baseline: basal luminescence | log2 fold change | 0.23
CCCc1cc(O)c2c(c1)OC(C)(C)[C@@H]1CCC(C)=C[C@@H]21 | TRPV3 (Homo sapiens, UniProt Q8NET8, H430A) | calcium uptake, agonist | HEK293S | mutant H430A, site 3 | – | Hill coefficient | 2.36 ± 0.2
C[C@]1(CO)Cc2ncn(-c3ccc(C#N)c(Cl)c3)c2C(=O)O1 | – | – | human, Chinese | 80 mg single dose | – | subjects with drug-related orthostatic hypotension | 0%
CN1CC[C@]2(C)c3cc(OC(=O)Nc4ccccc4)ccc3N(C)[C@H]12 | human nicotinic α2β2 receptor | radioligand binding | – | 10 µM, with: [3H]epibatidine | – | inhibition | 0%
CN1C(=O)NC(=O)C2(CCCCc3ccccc32)C1=O (stereo not drawn) | GABA-A receptor; alpha-1/beta-3/gamma-2 | – | – | 300 µM | – | Emax | 10%
O=C(O)c1nccnc1NC(=O)c1cccc2ccccc12 | Aspartate 1-decarboxylase (panD, Mycobacterium tuberculosis, UniProt P9WIL3) | β-alanine production | – | 200 µM, 40 min, 298 K, with: L-aspartate 2 mM | – | inhibition | 95.5%
O=C1NC(=O)C2(CCc3ccc(Cl)cc32)C(=O)N1 | GABA-A receptor; alpha-1/beta-3/gamma-2 | – | – | 300 µM | – | Emax | 15%
C[C@H]1CN(c2n[nH]c3nc(N[C@H]4CC[C@H](NS(=O)(=O)CCC(F)(F)F)CC4)ncc23)CCO1 | Very-long-chain enoyl-CoA reductase (Homo sapiens, UniProt Q9NZ01) | Kinobeads competition, measured: GPSN2 | – | 20 µM, unit not given | baseline: vehicle | remaining binding | 1.09
COc1cc(Nc2ncc(F)c(Nc3ccc4c(n3)NC(=O)C(C)(C)O4)n2)cc(OC)c1OC | ACAT | enzyme activity, inhibitor | liver | – | – | IC50 | > 10 µM
CCCCCCC(C)(C)c1ccc([C@@H]2C[C@H](O)CC[C@H]2CCCO)c(O)c1 | CNR1 (Homo sapiens, UniProt P21554, F170A) | Gαi1 engagement, agonist, BRET | – | TM2 mutant F170A | baseline: wild type receptor | Emax | 53 ± 5.6%

Some of these lines once more:
Structure (SMILES) | tested on | assay | test system | setting | how to read | quantity | result
Cl.O=C(N[C@H]1CC[C@@]2(O)[C@H]3Cc4ccc(O)c5c4[C@@]2(CCN3CC2CC2)[C@H]1O5)c1ccc(F)s1 | OPRD1 (Homo sapiens, UniProt P41143) | radioligand binding | CHO membranes | – | baseline: Ki µ over Ki δ | selectivity ratio | 108
CC[C@H](C)[C@@H]1NC(=O)[C@@H]2CCCN2C(=O)[C@H](CC(C)C)NC(=O)[C@H](CC(C)C)NC(=O)CNC(=O)[C@@H](NC(=O)[C@@H](NC(=O)[C@H](CC(=O)O)NC(=O)CNC(=O)[C@@H](NC(=O)[C@H](C)NC(=O)CNC(=O)[C@H](CCCCN)NC(=O)[C@H](CC(C)C)NC(=O)[C@H](CC(C)C)NC(=O)[C@H](CCCCN)NC(=O)CNC(=O)[C@@H](NC(=O)[C@@H](N)CC(C)C)C(C)C)C(C)C)C(C)C)CSSC[C@@H](C(=O)O)NC1=O | – | RNA-seq, measured: Gpr171 | mouse, traumatic brain injury model, frontal cortex and hippocampus | dose not given | baseline: TBI alone | log2 fold change | -2.92
CNC(C)C(=O)c1ccc2c(c1)OCO2 (stereo not drawn) | Slc6a3 (Rattus norvegicus, UniProt P23977) | substrate release, releaser | rat brain synaptosomes | – | – | maximal release | 100%
